Earlier results that unrelated publications cite.
Lines come from different studies, so protocols differ. ± gives the spread as reported.
Sequence of UniProt P08913 (whole entry, looked up): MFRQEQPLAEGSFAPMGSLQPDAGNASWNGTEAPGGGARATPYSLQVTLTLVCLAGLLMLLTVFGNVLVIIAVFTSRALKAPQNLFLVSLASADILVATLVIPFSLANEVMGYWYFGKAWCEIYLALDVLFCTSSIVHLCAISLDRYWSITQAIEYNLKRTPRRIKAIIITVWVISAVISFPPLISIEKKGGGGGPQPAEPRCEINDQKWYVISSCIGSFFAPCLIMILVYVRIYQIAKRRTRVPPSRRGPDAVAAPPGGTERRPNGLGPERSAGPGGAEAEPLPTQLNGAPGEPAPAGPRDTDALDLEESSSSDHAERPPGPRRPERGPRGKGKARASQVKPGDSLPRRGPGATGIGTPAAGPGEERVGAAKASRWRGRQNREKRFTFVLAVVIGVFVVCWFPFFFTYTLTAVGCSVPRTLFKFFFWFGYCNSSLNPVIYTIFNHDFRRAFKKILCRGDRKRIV
Sequence of UniProt P21917 (whole entry, looked up): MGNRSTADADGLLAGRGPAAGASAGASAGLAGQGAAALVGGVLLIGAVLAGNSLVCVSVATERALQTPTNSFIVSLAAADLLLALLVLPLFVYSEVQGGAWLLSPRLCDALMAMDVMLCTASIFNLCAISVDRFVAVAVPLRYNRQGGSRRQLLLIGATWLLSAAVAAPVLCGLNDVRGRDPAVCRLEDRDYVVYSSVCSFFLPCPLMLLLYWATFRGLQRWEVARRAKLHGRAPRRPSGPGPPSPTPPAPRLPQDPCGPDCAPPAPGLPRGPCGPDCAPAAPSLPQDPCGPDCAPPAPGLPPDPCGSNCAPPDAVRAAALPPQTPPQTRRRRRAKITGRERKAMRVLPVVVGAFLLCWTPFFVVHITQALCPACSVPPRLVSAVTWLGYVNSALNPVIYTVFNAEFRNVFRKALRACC

SMILES | target or system | assay | test system | setting | how to read | quantity | value
C=CCN(CC=C)CCc1c[nH]c2ccccc12 | ADRA2A (Homo sapiens, UniProt P08913) | binding | cloned human receptor | added: [3H]rauwolscine |  | Ki | 124 nM
CCCN(CCC)C(=O)Cc1c(-c2ccc(Cl)cc2)nc2ccc(Cl)cn12 |  |  | plasma | concentration not given |  | Cmax | 300 nM
CNC(C)C(=O)c1ccc2c(c1)OCO2 (centres unmarked) |  |  | rat | 5 mg/kg, 48 h |  | urinary excretion | ~3%
CC[C@@H](C(N)=O)N1CCCC1=O |  |  | human, plasma | total concentration, therapeutic range |  | therapeutic plasma concentration | 10 to 37 µg/mL
COc1ccc2c3c1O[C@H]1C(=O)CC[C@@]4(O)[C@@H](C2)N(C)CC[C@]314 |  |  | human drug abusers | oral, 15 mg, peak, 100-point scale, unit not given | baseline: placebo | drug liking-disliking | 21
CC(=O)NNC(=O)c1ccncc1 |  |  | THP-1 foamy macrophage matrix | 5 µM, 4 h, 37 °C |  | fraction unbound | > 99.9%
COc1cccc(C2(O)CCCCC2CN(C)C)c1 (centres unmarked) |  |  | plasma | concentration not given |  | Cmax | 1900 nM
CC(=O)NC[C@H]1CN(c2ccc(N3CCSCC3)c(F)c2)C(=O)O1 |  |  | caseum | 5 µM, 4 h, 37 °C |  | unbound fraction | 30.1 ± 8.7%
COc1ccc(CN(C(=O)[C@@H](N)Cc2c(C)cc(C(N)=O)cc2C)[C@@H](C)c2nc(-c3ccccc3)c[nH]2)cc1C(=O)O |  |  | rhesus monkey | intravenous, 3.2 mg/kg |  | clearance | 154 mL/min
CNC(C)Cc1ccc2c(c1)OCO2 (centres unmarked) |  |  | healthy human | oral, dose not given |  | Tmax | 2.2 to 2.6 h
NC(=O)c1ccc2c(c1O)[C@]13CCN(CC4CC4)[C@H](C2)[C@]1(O)CCC(=O)C3 |  |  | healthy subjects | dose not given, added: rifampin 600 mg/day |  | decrease in Cmax | 44%
COC(=O)Nc1nc2cc(C(=O)c3ccc(F)cc3)ccc2[nH]1 |  |  | Wistar rat, plasma | oral, 10 mg/kg |  | plasma level | 270 ng/mL
Cc1ncc2n1-c1ccc(Cl)cc1C(c1ccccc1F)=NC2 |  |  | human | oral, 2.5 mg, single agent, geometric mean |  | AUC(0-12h) | 0.0617 µM·h
CO[C@H]1/C=C/O[C@@]2(C)Oc3c(C)c(O)c4c(O)c(c(/C=N/N5CCN(C)CC5)c(O)c4c3C2=O)NC(=O)/C(C)=C\C=C\[C@H](C)[C@H](O)[C@@H](C)[C@@H](O)[C@@H](C)[C@H](OC(C)=O)[C@@H]1C |  |  | caseum | 5 µM, 4 h, 37 °C |  | unbound fraction | 5.13 ± 0.2%
COc1ccc2c3c1O[C@H]1C(=O)CC[C@@]4(O)[C@@H](C2)N(C)CC[C@]314 |  |  | patients with hepatic or renal impairment, plasma | dose not given |  | Cmax | increased
NNC(=O)c1ccncc1 |  |  | THP-1 foamy macrophage matrix | 5 µM, 4 h, 37 °C |  | fraction unbound | > 99.9%
CN(C)C[C@H]1CCCC[C@]1(O)c1cccc(O)c1 |  |  | human, urine | oral, dose not given, after tramadol dosing | baseline: dose | urinary excretion | > 10%
C[C@]1(COc2ccc(N3CCC(Oc4ccc(OC(F)(F)F)cc4)CC3)cc2)Cn2cc([N+](=O)[O-])nc2O1 |  |  | caseum | 5 µM, 4 h, 37 °C |  | unbound fraction | 0.04 ± 0.02%
C=CCN(CC=C)CCc1c[nH]c2ccc(Br)cc12 | DRD4 (Homo sapiens, UniProt P21917) |  |  |  |  | Ki | > 10000 nM
CC(C)/N=c1\cc2n(-c3ccc(Cl)cc3)c3ccccc3nc-2cc1Nc1ccc(Cl)cc1 |  |  | caseum | 5 µM, 4 h, 37 °C |  | unbound fraction | < 0.01%
CCCCCn1cc(C(=O)c2cccc3ccccc23)c2ccccc21 |  |  | human smokers, urine |  |  | parent drug in urine | not detected
COc1cccc(C2(O)CCCCC2CN(C)C)c1 (centres unmarked) |  |  | human drug abusers | oral, 400 mg, peak, 100-point scale, unit not given | baseline: placebo | drug liking-disliking | 24
COc1nc2ccc(Br)cc2cc1[C@@H](c1ccccc1)[C@@](O)(CCN(C)C)c1cccc2ccccc12 |  |  | caseum | 5 µM, 4 h, 37 °C |  | unbound fraction | < 0.01%
